Measured values gathered from unrelated publications.
Parts stem from different laboratories: compare values within a part only.

Series 1
Target: Sal-like protein 4, full length isoform A (SALL4, Homo sapiens, UniProt Q9UJQ4, residues 1-1053)
UniProt Q9UJQ4, sequence (whole entry, looked up): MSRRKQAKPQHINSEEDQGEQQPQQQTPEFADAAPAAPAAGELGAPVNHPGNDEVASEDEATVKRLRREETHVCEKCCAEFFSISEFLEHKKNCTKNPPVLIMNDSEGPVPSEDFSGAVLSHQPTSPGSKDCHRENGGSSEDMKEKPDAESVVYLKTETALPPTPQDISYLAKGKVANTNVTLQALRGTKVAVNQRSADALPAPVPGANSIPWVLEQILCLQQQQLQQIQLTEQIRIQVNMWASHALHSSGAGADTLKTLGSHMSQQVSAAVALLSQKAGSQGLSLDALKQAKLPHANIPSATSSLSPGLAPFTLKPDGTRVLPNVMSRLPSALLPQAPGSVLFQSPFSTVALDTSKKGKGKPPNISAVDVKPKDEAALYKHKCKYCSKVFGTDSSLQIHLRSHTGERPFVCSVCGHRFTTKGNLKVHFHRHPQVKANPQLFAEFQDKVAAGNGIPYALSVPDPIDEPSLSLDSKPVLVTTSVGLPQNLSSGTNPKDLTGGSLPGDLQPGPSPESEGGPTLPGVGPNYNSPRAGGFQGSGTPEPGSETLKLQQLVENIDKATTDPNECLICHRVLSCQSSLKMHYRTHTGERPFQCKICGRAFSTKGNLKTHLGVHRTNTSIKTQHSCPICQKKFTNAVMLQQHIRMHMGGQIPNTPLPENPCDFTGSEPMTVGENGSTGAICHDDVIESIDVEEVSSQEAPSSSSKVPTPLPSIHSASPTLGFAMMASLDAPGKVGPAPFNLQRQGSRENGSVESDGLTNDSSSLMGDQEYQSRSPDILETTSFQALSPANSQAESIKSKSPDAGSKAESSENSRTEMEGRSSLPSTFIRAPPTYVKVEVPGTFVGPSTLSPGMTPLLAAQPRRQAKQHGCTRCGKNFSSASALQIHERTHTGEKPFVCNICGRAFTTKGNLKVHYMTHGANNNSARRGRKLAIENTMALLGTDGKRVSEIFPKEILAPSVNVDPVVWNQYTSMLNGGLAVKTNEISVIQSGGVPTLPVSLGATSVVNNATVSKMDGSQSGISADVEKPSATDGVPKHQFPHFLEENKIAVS
Method: universal PBM
Form: double-stranded DNA, one strand shown
Medium: in vitro
Concentration: 600 nM
Setting: 8-mer, flanks averaged, mean of replicates
Direction: higher = stronger binding
Measurement: E-score
Oligonucleotide = ATCTTTAC; result = 0.17
Oligonucleotide = CTAAGCGA; result = -0.269
Oligonucleotide = GAGCAAGC; result = -0.358
Oligonucleotide = GGTATTCA; result = 0.154
Oligonucleotide = GTGAAGCA; result = -0.0479
Oligonucleotide = GGTGCGTA; result = -0.146
Oligonucleotide = AACAGTAT; result = 0.271
Oligonucleotide = ATGCTATG; result = 0.237
Oligonucleotide = CTTAGGGC; result = -0.0936
Oligonucleotide = GGAGTAAA; result = 0.205
Oligonucleotide = ACGTGTCC; result = -0.264
Oligonucleotide = CATCAGAA; result = 0.191
Oligonucleotide = ACAAAGCG; result = 0.0066
Oligonucleotide = CCCATGGG; result = -0.313
Oligonucleotide = AGGTACCA; result = -0.161
Oligonucleotide = AGCGTACT; result = -0.121
Oligonucleotide = GGTCTTAA; result = -0.0249
Oligonucleotide = GCGAGACA; result = -0.309
Oligonucleotide = ACCGGTAA; result = -0.0359
Oligonucleotide = ACGTGAGT; result = -0.0585
Oligonucleotide = ATTAGGTG; result = 0.0822
Oligonucleotide = CACGACGG; result = -0.144
Oligonucleotide = AGTCTCCA; result = -0.0654
Oligonucleotide = CAATATCC; result = 0.142
Oligonucleotide = CTGAGTGA; result = 0.0412

Series 2
Target: Histone acetyltransferase KAT6A, winged helix 2, GST fusion (KAT6A, Homo sapiens, UniProt Q92794, residues 85-181)
Method: protein binding microarray
Form: double-stranded DNA, one strand shown
Medium: in vitro
Concentration: not given
Setting: 8-mer, flanks averaged, mean of 2 arrays, mostly near background
Baseline: not given
Direction: higher = stronger binding
Measurement: E-score
Construct (chain): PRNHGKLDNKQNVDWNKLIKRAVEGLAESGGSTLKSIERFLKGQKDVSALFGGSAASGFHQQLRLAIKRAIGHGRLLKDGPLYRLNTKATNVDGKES
Oligonucleotide = GTTACACA; result = -0.0398
Oligonucleotide = GAGTCTGC; result = -0.0096
Oligonucleotide = ACTTGAAT; result = -0.0289
Oligonucleotide = TATACAGA; result = 0.0399
Oligonucleotide = CGGTCCGC; result = 0.16
Oligonucleotide = ATGAACGA; result = -0.0229
Oligonucleotide = GCATGACA; result = 0.0463
Oligonucleotide = ATCACTTC; result = -0.0408
Oligonucleotide = ACAGGCTC; result = -0.00268
Oligonucleotide = AACCCTCT; result = -0.123
Oligonucleotide = ATGAGAGC; result = 0.0618
Oligonucleotide = ACTGCGAT; result = 0.0756
Oligonucleotide = AATCCCTG; result = 0.00434
Oligonucleotide = CTGTGGCC; result = 0.0445
Oligonucleotide = ATACTCGG; result = 0.0308
Oligonucleotide = CAGCTAGA; result = -0.0107
Oligonucleotide = AAAAGCAG; result = 0.0792
Oligonucleotide = AGCGCGAT; result = 0.0543
Oligonucleotide = AGGGGAGA; result = -0.162
Oligonucleotide = AGTATCCG; result = 0.0549
Oligonucleotide = ACCGAGCG; result = 0.194
Oligonucleotide = ATAGCTGA; result = 0.0495
Oligonucleotide = GTCCTCCA; result = -0.0589
Oligonucleotide = GATCGGAA; result = -0.0361
Oligonucleotide = CGGATCGA; result = 0.151

Series 3
Target: Ras GTPase-activating protein-binding protein 1, C-terminal RGG region (G3BP1, Homo sapiens, UniProt Q13283)
UniProt Q13283, sequence (whole entry, looked up): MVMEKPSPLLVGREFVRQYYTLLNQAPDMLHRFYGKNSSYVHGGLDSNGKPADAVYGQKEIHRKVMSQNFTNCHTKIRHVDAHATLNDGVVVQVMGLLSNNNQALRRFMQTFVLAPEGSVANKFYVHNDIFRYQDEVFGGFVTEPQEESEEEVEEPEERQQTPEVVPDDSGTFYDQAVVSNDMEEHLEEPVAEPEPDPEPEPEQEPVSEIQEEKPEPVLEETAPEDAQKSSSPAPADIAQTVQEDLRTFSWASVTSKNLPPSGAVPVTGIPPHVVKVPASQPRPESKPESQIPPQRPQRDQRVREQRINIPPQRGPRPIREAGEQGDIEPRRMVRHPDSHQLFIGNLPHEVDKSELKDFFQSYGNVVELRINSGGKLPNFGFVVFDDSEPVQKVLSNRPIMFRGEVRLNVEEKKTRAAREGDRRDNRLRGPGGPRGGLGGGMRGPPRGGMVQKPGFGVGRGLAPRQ
Method: RNA Bind-n-Seq
Form: RNA
Medium: in vitro
Concentration: 1 µM
Setting: whole 134-nt RNA, ends assumed
Added: 150 mM KCl
Baseline: input library
Direction: higher = stronger binding
Measurement: log2 enrichment
Oligonucleotide = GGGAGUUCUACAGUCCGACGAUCGUCCUGUGCUACACAUCGUAUGUACCGAAUCAAACCCAAAUUUUUAAACCCCCCCAAAAAAGUAUUAUGUUACGCCGUUCGGAUCUGCACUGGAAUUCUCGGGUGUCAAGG; result = -0.704
Oligonucleotide = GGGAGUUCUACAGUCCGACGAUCCUGUGCUACACAUCGUAUGUACCGAAUCGGCCCCCCCGGGGCCCCCCCGGGCCCCCCCGGGGAAAGUAUUAUGUUACGCCGUUCGGAUCUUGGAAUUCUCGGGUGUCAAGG; result = -2.4
Oligonucleotide = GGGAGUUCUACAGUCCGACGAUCUGGCCCUGGUGGCAUGCGGGGAGGAAGAGGUGGCCUCAUGGAUCGUGGUGGUCCCGGUGGAAUGUUCAGAGGUGGCCGUGGUGGUGACAGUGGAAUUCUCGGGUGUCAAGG; result = 3.28
Oligonucleotide = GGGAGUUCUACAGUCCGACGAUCUCCUGUGCUACACAUCGUAUGUACCGAAUCGGUUUUUUGGGGUUUUUUGGGGUUUUUUGGAAAGUAUUAUGUUACGCCGUUCGGAUCUGCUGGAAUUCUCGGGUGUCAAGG; result = -0.423
Oligonucleotide = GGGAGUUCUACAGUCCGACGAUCAGUCCUGUGCUACACAUCGUAUGUACCGAAUCGGGCCCCGGCCCCGGGGCCCCGGGGAAAGUAUUAUGUUACGCCGUUCGGAUCUGCACUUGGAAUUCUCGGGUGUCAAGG; result = -2.36
Oligonucleotide = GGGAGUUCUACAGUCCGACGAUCUCCUGUGCUACACAUCGUAUGUACCGAAUCAAACCCCCCCAAACCCAAAUUUUUUUAAAAAAGUAUUAUGUUACGCCGUUCGGAUCUGCAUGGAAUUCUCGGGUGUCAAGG; result = -0.664
Oligonucleotide = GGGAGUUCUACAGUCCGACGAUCCAAGUCCUGUGCUACACAUCGUAUGUACCGAAUCGGGUGGGUGGGUUUUUUUGGGAAAGUAUUAUGUUACGCCGUUCGGAUCUGCACUUCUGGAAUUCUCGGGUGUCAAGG; result = 0.818
Oligonucleotide = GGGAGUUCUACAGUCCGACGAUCCCUCAAGUCCUGUGCUACACAUCGUAUGUACCGAAUCGGGUGGGAGGGUGGGAAAGUAUUAUGUUACGCCGUUCGGAUCUGCACUUCCAGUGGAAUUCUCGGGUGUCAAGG; result = 1.85
Oligonucleotide = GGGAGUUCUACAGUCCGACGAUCGUCCUGUGCUACACAUCGUAUGUACCGAAUCGGGUUUUUUUGGGUUUUUUUGGGAGGGAAAGUAUUAUGUUACGCCGUUCGGAUCUGCACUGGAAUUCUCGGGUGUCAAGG; result = -0.0766
Oligonucleotide = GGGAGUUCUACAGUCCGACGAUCCUGUGCUACACAUCGUAUGUACCGAAUCGGGGUUUUUUGGGUUUUUUGGGGUUUUUUGGGGAAAGUAUUAUGUUACGCCGUUCGGAUCUGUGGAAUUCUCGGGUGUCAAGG; result = -0.912

Series 4
Target: RING finger protein unkempt homolog, zinc fingers 1-6, GST-SBP tag (UNK, Homo sapiens, UniProt Q9C0B0, residues 30-357)
Method: RNA Bind-n-Seq
Form: RNA
Medium: in vitro
Concentration: not given
Setting: RNA with constant flanks, human-mouse chimeric sites, ends assumed
Baseline: input RNA pool
Direction: higher = stronger binding
Measurement: bound/input enrichment
Residues (chain): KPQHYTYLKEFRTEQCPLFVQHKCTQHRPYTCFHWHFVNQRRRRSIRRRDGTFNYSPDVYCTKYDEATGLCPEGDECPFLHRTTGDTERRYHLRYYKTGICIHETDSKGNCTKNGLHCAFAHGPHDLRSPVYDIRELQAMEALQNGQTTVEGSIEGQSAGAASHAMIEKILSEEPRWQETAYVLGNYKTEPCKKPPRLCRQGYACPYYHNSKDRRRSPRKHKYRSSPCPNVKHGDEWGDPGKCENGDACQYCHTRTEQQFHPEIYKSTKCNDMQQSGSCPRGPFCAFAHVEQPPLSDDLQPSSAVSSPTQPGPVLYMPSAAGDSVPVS
Oligonucleotide = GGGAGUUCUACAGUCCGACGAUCAAAGAUCUACUGAGGCAAGGCAGCAAAUUUAGGAGAGACAUUUCAACACUAUUAAUAGAGUUAGGAUUCCAAAUUAAAAAGAAAACUAAGACAUUAUACAUCAACAAAGCCAAUGUGUGGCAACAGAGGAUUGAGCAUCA; result = 7.28 ratio
Oligonucleotide = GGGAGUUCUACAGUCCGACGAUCGUUCGGCUCUGGGAUCAUGCCACAAUGACAGAAGUGAAAUCUCUGAAUUUUAAUAUGUCUGUUAGUAGCAUGGAGUAUAUUCCUGAAGGAGAGAUUUUGGUUAUAACUUAUGGACGAUCUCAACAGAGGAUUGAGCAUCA; result = 0.56 ratio
Oligonucleotide = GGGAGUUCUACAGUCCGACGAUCACACAAUAUGAGACCAACAGCAUGGACUUCAAAGUUGGGGCAGAUGGGACAGUCUUCGCCACCCGGGAGUUGAAGAUCCCCUCCGAGCAGGUGGCGUUCACGGUGACUGCGCGGGAAAGCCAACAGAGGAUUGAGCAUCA; result = 0.175 ratio
Oligonucleotide = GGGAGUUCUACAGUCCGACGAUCUAAGUCCUGUGCCAGCACUUCGCUCAUAAAGUUUUAAAUUCUGGACCAAUAGUGUUUGUUUCCUGAUUAUUGUAUCCAAUACUUUGCGUACUAUGUGACUCAUGCUUACUGAUAAUAAAACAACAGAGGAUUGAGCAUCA; result = 0.376 ratio
Oligonucleotide = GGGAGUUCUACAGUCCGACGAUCGUGACUGGUGUUAAGAUUUCCCCUCAGAAAAGAACUGCAGUAGUCACCAUAAUUCCAUCUGUGGUGAGUGCCAGUCAGAUUGUGGAGCUGGUCCCAGACCUCAGUUUAGAUACUGGGACUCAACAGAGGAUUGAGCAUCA; result = 0.522 ratio
Oligonucleotide = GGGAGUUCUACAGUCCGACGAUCUUCUAGUAUGAUGGUGAUAUUGGCAAUUAUUAUUAUGGCCAGGGUCAUCCCAUGAAGCCUCAUAGAAUCCGGAUGACCCAUAACUUGCUGCUAAAUUAUGGUUUAUACCGAAAAAUGGAACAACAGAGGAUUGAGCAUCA; result = 0.252 ratio
Oligonucleotide = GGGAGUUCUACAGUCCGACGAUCUCAACAGACAACAUCAAAUACCAGCCUAAAGGGGGGCAGGUACAAAUUGUUACUAAGAAAAUAGACCUAAGCCAUGUGACAUCCAAAUGUGGCUCUCUGAAGAACAUCCGCCACAGGCCACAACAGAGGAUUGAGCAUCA; result = 0.677 ratio
Oligonucleotide = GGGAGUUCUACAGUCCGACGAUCAUCCAGUACUCGAAUCACAAAGAACUAAAGACAGAUAAUACAUUAAACCAACGUGCUCAGGCAGUUCUUCAAGCUGUGACAGCGGUCCAGACAGCAAAUACUCCUCUUAGUGGCACCACACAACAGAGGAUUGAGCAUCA; result = 0.264 ratio
Oligonucleotide = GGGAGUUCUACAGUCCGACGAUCAAGGUGAUGACUAUGUUUGUCCAACGACAGGUAUUUUCGGAGAGCAAAGAUGAGAUUGCGUUAGUCCUCUAUGGCACAGAUGGCACUGAUAAUGCCCUUGCUGGCAAGGACCAGUAUCAGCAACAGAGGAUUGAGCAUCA; result = 0.133 ratio
Oligonucleotide = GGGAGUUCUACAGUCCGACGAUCAAAGGCAAAAAGGGCAGCUGUGUCAUUUCAUAAGUAACUCUGGGGGAGGGAAAUUCUGUUCUUUUGUUUAAUUUUCCCCCAAAUGAAGCCAAAGUGUGUGUUGAAGAACUGAGAAAAAAUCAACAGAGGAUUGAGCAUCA; result = 0.179 ratio
Oligonucleotide = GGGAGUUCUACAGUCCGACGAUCUCAAGGGGGCACUGCAGAGCCAUGCCUUUCCUUGACAUACAGAAAAAGCUGGGCAUCAGCCUGGACCGGCACUUUAUGUUCCUAAGCGGUGAACAGCCCUAUAAGAACGCCGCUCGGUGCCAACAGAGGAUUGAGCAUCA; result = 0.085 ratio

A few entries again (series 2):
Oligonucleotide = ATGAGAGC; result = 0.0618
Oligonucleotide = AATCCCTG; result = 0.00434
Oligonucleotide = CAGCTAGA; result = -0.0107
Oligonucleotide = AGTATCCG; result = 0.0549
Oligonucleotide = CTGTGGCC; result = 0.0445
Oligonucleotide = ATCACTTC; result = -0.0408
